Results of several laboratories.
Several values in a cell are separate wells, animals, samples, runs or records. ± marks the error that the study gave. Values after ≈ are worked out from the molar mass of the structure shown.
Organism: Acinetobacter baumannii

SMILES | assay | system | setting | scale | quantity | result
C[C@@H](O)[C@H]1C(=O)N2C(C(=O)[O-])=C(SC3Cn4cnc[n+]4C3)[C@H](C)[C@H]12 (some centres unmarked) | checkerboard | carbapenem-resistant | concentration not given, with: anionic gold nanoparticle 8 µg/mL | baseline: MIC alone over combination | MIC fold reduction | 8 fold
CNC(C)C1CCC(N)C(OC2C(N)CC(N)C(OC3OCC(C)(O)C(NC)C3O)C2O)O1 (centres unmarked) |  | 19606, biofilm | 25 µg/mL, with: HNP1 8 µM |  | survival | 14.4% and 8.5% and 6.8% and 22.1% and 11.9% and 15.3%
O=C(O)c1cccc(C(=O)O)n1 |  | NDM-2 producer | 32 µg/mL, with: meropenem |  | meropenem MIC | 2 µg/mL
N=C(N)NCCC[C@H](NC(=O)[C@@H](N)CCCNC(=N)N)C(=O)N[C@@H](Cc1c[nH]c2ccccc12)C(=O)N[C@@H](Cc1c[nH]c2ccccc12)C(=O)N[C@@H](Cc1ccccc1)C(=O)N[C@@H](CCC(N)=O)C(=O)N[C@@H](Cc1ccccc1)C(=O)N[C@@H](CCC(N)=O)C(=O)N[C@@H](Cc1ccccc1)C(=O)N[C@@H](CCCCN)C(N)=O |  |  |  |  | MBC | 1130 µM (≈ 1730 µg/mL)
Cn1c(=O)ccc2ccc(F)c(CCNC[C@H]3CN(c4cnc5c(n4)NC(=O)CO5)C(=O)O3)c21 |  |  |  |  | MIC90 | 0.5 µg/mL (≈ 1.07 µM)
N=C(N)NCCC[C@H](NC(=O)[C@H](Cc1c[nH]c2ccccc12)NC(=O)[C@@H](N)CCCNC(=N)N)C(=O)N[C@@H](Cc1c[nH]c2ccccc12)C(=O)N[C@@H](Cc1ccccc1)C(=O)N[C@@H](CCC(N)=O)C(=O)N[C@@H](Cc1ccccc1)C(=O)N[C@@H](CCC(N)=O)C(=O)N[C@@H](Cc1ccccc1)C(=O)N[C@@H](CCCCN)C(N)=O |  |  |  |  | MBC | 570 µM (≈ 871 µg/mL)
NC[C@H]1O[C@H](O[C@H]2[C@H](O)[C@@H](O[C@H]3O[C@H](CO)[C@@H](O)[C@H](N)[C@H]3O)[C@H](N)C[C@@H]2N)[C@H](O)[C@@H](O)[C@@H]1O | colony counting | 19606, biofilm | 25 µg/mL, 12 h, without HNP1 |  | survival | 2.2% and 3.46% and 1.93% and 2.25% and 2.83% and 2.56%
CC[C@H](C)[C@H](NC(=O)[C@H](C)NC(=O)[C@H](CCCCN)NC(=O)[C@H](CC(C)C)NC(=O)[C@H](C)NC(=O)[C@@H](NC(=O)[C@H](Cc1c[nH]cn1)NC(=O)[C@H](CC(C)C)NC(=O)[C@@H](NC(=O)[C@@H](NC(=O)[C@H](CCCCN)NC(=O)[C@H](C)NC(=O)[C@H](C)NC(=O)[C@H](CO)NC(=O)[C@H](CCCCN)NC(=O)[C@H](Cc1ccccc1)NC(=O)[C@@H](NC(=O)[C@H](CCCCN)NC(=O)[C@H](CC(C)C)NC(=O)[C@H](Cc1ccccc1)NC(=O)[C@H](CO)NC(=O)[C@H](CCCCN)NC(=O)[C@H](Cc1c[nH]c2ccccc12)NC(=O)[C@H](CCCCN)NC(C)=O)[C@@H](C)O)[C@@H](C)O)C(C)C)[C@@H](C)O)C(=O)N[C@@H](CO)C(=O)N[C@@H](CO)C(N)=O |  | ATCC 19606 |  |  | MBC90 | 2 µg/mL (≈ 0.682 µM)
C[C@@H](N)[C@H](O)CCCCCCCC(=O)CCCCCCCCCCCCCC[C@@H](O[C@@H]1O[C@H](CO)[C@H](O)[C@H](O)[C@H]1O)[C@@H](C)N | resazurin | ATCC 19606 | 50 µM |  | growth inhibition | 99 ± 0.01%
C[C@@H](O)[C@H]1C(=O)N2C(C(=O)O)=C(SCCN=CN)C[C@H]12 | checkerboard | carbapenem-resistant | concentration not given, with: anionic gold nanoparticle 8 µg/mL | baseline: MIC alone over combination | MIC fold reduction | 8 fold
C[C@@H](O)[C@H]1C(=O)N2C(C(=O)O)=C(S[C@@H]3CN[C@H](C(=O)N(C)C)C3)[C@H](C)[C@H]12 |  | rat, lung | intravenous bolus, 15 mg/kg twice daily | baseline: early control | change in lung bacterial load | -3.4 log10 CFU/g
CN(C)[C@@H]1C(O)=C(C(N)=O)C(=O)[C@@]2(O)C(O)=C3C(=O)c4c(O)cccc4[C@@](C)(O)[C@H]3C[C@@H]12 |  | 19606, biofilm | 50 µg/mL, without HNP1 |  | survival | 69.5% and 71.4% and 59.7% and 71% and 58.1% and 68.7%
N=C(N)NCCC[C@H](NC(=O)[C@H](Cc1c[nH]c2ccccc12)NC(=O)[C@H](CCCNC(=N)N)NC(=O)[C@@H](N)Cc1c[nH]c2ccccc12)C(=O)N[C@@H](Cc1ccccc1)C(=O)N[C@@H](CCC(N)=O)C(=O)N[C@@H](Cc1ccccc1)C(=O)N[C@@H](CCC(N)=O)C(=O)N[C@@H](Cc1ccccc1)C(=O)N[C@@H](CCCCN)C(N)=O |  |  |  |  | MBC | 140 µM (≈ 214 µg/mL)
C[C@@H](O)[C@H]1C(=O)N2C(C(=O)O)=C(S[C@@H]3CN[C@H](C(=O)Nc4cccc(C(=O)O)c4)C3)[C@H](C)[C@H]12 | checkerboard | carbapenem-resistant | concentration not given, with: anionic gold nanoparticle 8 µg/mL | baseline: MIC alone over combination | MIC fold reduction | 32 fold
